# Measurements of several laboratories.
# ± gives the spread as reported.
Compound,organism,test,system,conditions,EC50
O=C(O)P(=O)(O)O,Hepatitis B virus,"viral replication, inhibitor",,,< 50 nM
Nc1ncnc2c1c(-c1ccc(F)cc1)cn2[C@@H]1O[C@H](CO)C[C@H]1O,Trichomonas vaginalis,resorufin,"G3, metronidazole-sensitive","24 h + 2 h, 2% O2",2000 ± 180 nM
CC[C@@H]([C@H](C)O)n1ncn(-c2ccc(N3CCN(c4ccc(OC[C@@H]5CO[C@@](Cn6cncn6)(c6ccc(F)cc6F)C5)cc4)CC3)cc2)c1=O,Hepatitis B virus,"viral replication, inhibitor",,,220 nM
Nc1ncn(CC(O)C(F)(F)F)c(=O)n1 (stereo not drawn),herpes simplex virus 1,cytopathic effect,"HEL, KOS, TK+",,230000 ± 29000 nM
O=c1[nH]c(=O)n([C@H]2C[C@H](O)[C@@H](CO)O2)cc1/C=C/Br,varicella-zoster virus,"viral plaque formation, plaque reduction","HEL, thymidine kinase positive",,42 nM
Nc1ncnc2c1c(-c1ccccc1F)cn2[C@@H]1O[C@H](CO)[C@@H](O)[C@H]1O,Trichomonas vaginalis,resorufin,"G3, metronidazole-sensitive","24 h + 2 h, 2% O2",210 ± 68 nM
Nc1ccn(C[C@@H](CO)OCP(=O)(O)O)c(=O)n1,herpes simplex virus 2,cytopathic effect,"HEL, G",,0.7 ± 0.37 µg/mL
CCC(C)(C)C(=O)O[C@H]1C[C@@H](C)C=C2C=C[C@H](C)[C@H](CC[C@@H]3C[C@@H](O)CC(=O)O3)[C@H]21,Hepatitis B virus,"viral replication, inhibitor",,,2240 nM
CCCCCCCCCCCCCCCCOCCCOP(=O)(O)COCCn1cnc2c(=O)[nH]c(=O)[nH]c21,herpes simplex virus 2,cytopathic effect,"HEL, G",,4000 nM
CCc1ccc(-c2cn([C@@H]3O[C@H](CO)C[C@H]3O)c3ncnc(N)c23)cc1,Trichomonas vaginalis,resorufin,"G3, metronidazole-sensitive","24 h + 2 h, 2% O2",790 ± 47 nM
CS(=O)(=O)c1ccc(C(=O)Nc2ccc(Cl)c(-c3ccccn3)c2)c(Cl)c1,Feline infectious peritonitis virus,"viral replication, visual scoring",,48 h,32500 ± 2500 nM
O=c1[nH]c(=O)n([C@H]2C[C@H](O)[C@@H](CO)O2)cc1/C=C/Br,herpes simplex virus 1,cytopathic effect,"HEL, KOS, TK+",,30 ± 20 nM
C/C=C/C=C/C1C(C)=CC2CC(C)CCC2C1(C)/C(O)=C1\C(=O)NC(CO)C1=O (stereo not drawn),Trichomonas vaginalis,viability,,17 h,800 nM
N#C[C@@]1(c2ccc3c(N)ncnn23)O[C@H](CO)[C@@H](O)[C@H]1O,Feline infectious peritonitis virus,"viral replication, visual scoring",,48 h,3500 nM
Nc1ncnc2c1c(-c1ccc(Cl)c(F)c1)cn2[C@@H]1O[C@H](CO)C[C@H]1O,Trichomonas vaginalis,resorufin,"G3, metronidazole-sensitive","24 h + 2 h, 2% O2",1570 ± 39 nM
C/C=C/C[C@@H](C)[C@@H](O)[C@H]1C(=O)N[C@@H](C(C)C)C(=O)N(C)CC(=O)N(C)[C@@H](CC(C)C)C(=O)N[C@@H](C(C)C)C(=O)N(C)[C@@H](CC(C)C)C(=O)N[C@@H](C)C(=O)N[C@H](C)C(=O)N(C)[C@@H](CC(C)C)C(=O)N(C)[C@@H](CC(C)C)C(=O)N(C)[C@@H](C(C)C)C(=O)N1C,HCoV-NL63,"viral replication, qPCR of supernatant",Caco-2,48 h,2500 nM
Nc1ncnc2c1c(-c1cccc(Cl)c1)cn2[C@@H]1O[C@H](CO)C[C@H]1O,Trichomonas vaginalis,resorufin,"G3, metronidazole-sensitive","24 h + 2 h, 2% O2",3670 ± 390 nM
COC(=O)C[C@](O)(CCCC(C)(C)O)C(=O)O[C@@H]1C(OC)=C[C@]23CCCN2CCc2cc4c(cc2[C@H]13)OCO4,Feline infectious peritonitis virus,"viral replication, visual scoring",,48 h,31 ± 3 nM
O=c1[nH]c(=O)c2ncn(C[C@H](CF)OCP(=O)(O)O)c2[nH]1,herpes simplex virus 1,cytopathic effect,"HEL, KOS",,> 313000 nM
Cc1c(C(=O)NN2CCCCC2)nn(-c2ccc(Cl)cc2Cl)c1-c1ccc(Cl)cc1,Hepatitis B virus,"viral replication, inhibitor",,,230 nM
CCOC(=O)C(C)NP(=O)(COC(CF)CN1CN2C=C(c3ccccc3)NC2=NC1=O)NC(C)C(=O)OCC (stereo not drawn),herpes simplex virus 1,cytopathic effect,"HEL, KOS, TK+",,> 100000 nM
Nc1ncnc2c1c(-c1ccc(F)c(Cl)c1)cn2[C@@H]1O[C@H](CO)C[C@H]1O,Trichomonas vaginalis,resorufin,"G3, metronidazole-sensitive","24 h + 2 h, 2% O2",1780 ± 210 nM
O=c1nc(NC2CC2)c2ncn(CCOCP(=O)(O)O)c2[nH]1,herpes simplex virus 2,cytopathic effect,"HEL, G",,> 100000 nM
Nc1ncnc2c1ncn2CCOCP(=O)(O)O,herpes simplex virus 1,cytopathic effect,"HEL, KOS",72 h,6 ± 3.5 µg/mL
Nc1ccn(C[C@@H](CO)OCP(=O)(O)O)c(=O)n1,herpes simplex virus 1,cytopathic effect,"HEL, KOS",,1500 ± 500 nM
CCCCN1C(=O)c2cccc3cc(NC(=O)[C@@H]4C[C@@H](P(=O)(OCC)OCC)N(C)O4)cc(c23)C1=O (racemic),varicella-zoster virus,"viral plaque formation, plaque reduction","HEL, thymidine kinase positive",,32000 nM
Cc1ccc(-c2cn([C@@H]3O[C@H](CO)C[C@H]3O)c3ncnc(N)c23)cc1,Trichomonas vaginalis,resorufin,"G3, metronidazole-sensitive","24 h + 2 h, 2% O2",1550 ± 40 nM
O=c1[nH]c(=O)c2ncn(C[C@@H](CO)OCP(=O)(O)O)c2[nH]1,herpes simplex virus 1,cytopathic effect,"HEL, KOS",,33000 ± 18000 nM
COc1ccc(-c2cn([C@@H]3O[C@H](CO)C[C@H]3O)c3ncnc(N)c23)cc1,Trichomonas vaginalis,resorufin,"G3, metronidazole-sensitive","24 h + 2 h, 2% O2",730 ± 93 nM
NC1=NC(=O)N(CC(O)C(F)(F)F)CN1 (stereo not drawn),herpes simplex virus 1,cytopathic effect,"HEL, KOS, TK+",,> 100000 nM

# A few entries again:
Compound,organism,test,system,conditions,EC50
O=c1[nH]c(=O)c2ncn(C[C@@H](CO)OCP(=O)(O)O)c2[nH]1,herpes simplex virus 1,cytopathic effect,"HEL, KOS",,33000 ± 18000 nM
Nc1ncnc2c1c(-c1ccc(F)c(Cl)c1)cn2[C@@H]1O[C@H](CO)C[C@H]1O,Trichomonas vaginalis,resorufin,"G3, metronidazole-sensitive","24 h + 2 h, 2% O2",1780 ± 210 nM
Nc1ncn(CC(O)C(F)(F)F)c(=O)n1 (stereo not drawn),herpes simplex virus 1,cytopathic effect,"HEL, KOS, TK+",,230000 ± 29000 nM
